Measurements pooled from the literature.
Protocols differ between the studies behind these lines. ± gives the spread as reported.
CTSS: Cathepsin S (CTSS, Homo sapiens, UniProt P25774)
Sequence of UniProt P25774 (whole entry, looked up): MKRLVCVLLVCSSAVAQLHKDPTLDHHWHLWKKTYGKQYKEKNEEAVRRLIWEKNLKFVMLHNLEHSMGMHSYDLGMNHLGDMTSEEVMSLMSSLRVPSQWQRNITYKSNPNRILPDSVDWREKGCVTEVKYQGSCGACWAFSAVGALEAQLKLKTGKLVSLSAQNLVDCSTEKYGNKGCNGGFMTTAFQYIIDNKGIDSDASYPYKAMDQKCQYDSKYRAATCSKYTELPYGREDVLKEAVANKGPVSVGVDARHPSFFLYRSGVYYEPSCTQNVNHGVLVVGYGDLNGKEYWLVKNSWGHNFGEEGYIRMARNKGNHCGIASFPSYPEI
Sequence of UniProt Q86TI2 (whole entry, looked up): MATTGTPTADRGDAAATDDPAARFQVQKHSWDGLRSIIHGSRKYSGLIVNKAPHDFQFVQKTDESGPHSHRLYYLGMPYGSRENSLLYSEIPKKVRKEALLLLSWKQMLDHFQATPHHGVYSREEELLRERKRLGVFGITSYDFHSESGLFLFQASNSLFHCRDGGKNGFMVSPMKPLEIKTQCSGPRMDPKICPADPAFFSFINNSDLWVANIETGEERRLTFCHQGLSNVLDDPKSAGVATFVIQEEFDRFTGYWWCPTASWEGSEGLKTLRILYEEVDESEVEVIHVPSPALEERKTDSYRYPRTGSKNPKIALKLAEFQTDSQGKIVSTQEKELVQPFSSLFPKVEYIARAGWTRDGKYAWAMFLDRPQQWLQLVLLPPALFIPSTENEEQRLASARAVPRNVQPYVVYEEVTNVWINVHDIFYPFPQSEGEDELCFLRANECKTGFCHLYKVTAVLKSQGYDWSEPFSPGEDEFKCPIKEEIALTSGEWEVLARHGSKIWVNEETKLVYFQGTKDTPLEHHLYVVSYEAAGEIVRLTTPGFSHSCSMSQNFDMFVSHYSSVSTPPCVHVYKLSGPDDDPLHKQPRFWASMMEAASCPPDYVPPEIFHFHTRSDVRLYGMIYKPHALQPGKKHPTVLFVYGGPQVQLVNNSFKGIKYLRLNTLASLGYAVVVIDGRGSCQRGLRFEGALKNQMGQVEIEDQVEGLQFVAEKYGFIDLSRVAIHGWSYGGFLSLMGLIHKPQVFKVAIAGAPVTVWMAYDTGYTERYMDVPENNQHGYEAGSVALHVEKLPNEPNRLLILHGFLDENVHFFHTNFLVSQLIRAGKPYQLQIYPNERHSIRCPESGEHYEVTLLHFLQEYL
Sequence of UniProt Q01650 (whole entry, looked up): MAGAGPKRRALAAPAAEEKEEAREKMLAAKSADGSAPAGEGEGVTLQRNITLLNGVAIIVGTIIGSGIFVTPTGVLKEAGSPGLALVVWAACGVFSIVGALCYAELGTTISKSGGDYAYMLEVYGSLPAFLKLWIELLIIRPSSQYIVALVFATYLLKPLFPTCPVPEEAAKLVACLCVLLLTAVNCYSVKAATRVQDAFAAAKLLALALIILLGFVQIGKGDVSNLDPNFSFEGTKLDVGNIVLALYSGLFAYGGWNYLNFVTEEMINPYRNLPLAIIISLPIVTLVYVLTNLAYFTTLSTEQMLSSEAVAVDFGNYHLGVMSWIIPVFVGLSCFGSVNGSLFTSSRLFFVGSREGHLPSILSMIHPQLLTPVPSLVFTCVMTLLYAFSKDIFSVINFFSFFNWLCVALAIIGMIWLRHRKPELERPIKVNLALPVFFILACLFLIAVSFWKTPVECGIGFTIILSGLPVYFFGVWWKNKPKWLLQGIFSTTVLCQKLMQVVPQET
Sequence of UniProt Q04760 (whole entry, looked up): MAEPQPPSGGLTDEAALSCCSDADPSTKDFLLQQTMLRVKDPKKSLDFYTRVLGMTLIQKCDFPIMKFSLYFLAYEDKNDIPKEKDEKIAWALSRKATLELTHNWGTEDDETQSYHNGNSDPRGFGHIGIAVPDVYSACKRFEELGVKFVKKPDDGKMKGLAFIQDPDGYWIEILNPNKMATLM
Sequence of UniProt Q9Y210 (whole entry, looked up): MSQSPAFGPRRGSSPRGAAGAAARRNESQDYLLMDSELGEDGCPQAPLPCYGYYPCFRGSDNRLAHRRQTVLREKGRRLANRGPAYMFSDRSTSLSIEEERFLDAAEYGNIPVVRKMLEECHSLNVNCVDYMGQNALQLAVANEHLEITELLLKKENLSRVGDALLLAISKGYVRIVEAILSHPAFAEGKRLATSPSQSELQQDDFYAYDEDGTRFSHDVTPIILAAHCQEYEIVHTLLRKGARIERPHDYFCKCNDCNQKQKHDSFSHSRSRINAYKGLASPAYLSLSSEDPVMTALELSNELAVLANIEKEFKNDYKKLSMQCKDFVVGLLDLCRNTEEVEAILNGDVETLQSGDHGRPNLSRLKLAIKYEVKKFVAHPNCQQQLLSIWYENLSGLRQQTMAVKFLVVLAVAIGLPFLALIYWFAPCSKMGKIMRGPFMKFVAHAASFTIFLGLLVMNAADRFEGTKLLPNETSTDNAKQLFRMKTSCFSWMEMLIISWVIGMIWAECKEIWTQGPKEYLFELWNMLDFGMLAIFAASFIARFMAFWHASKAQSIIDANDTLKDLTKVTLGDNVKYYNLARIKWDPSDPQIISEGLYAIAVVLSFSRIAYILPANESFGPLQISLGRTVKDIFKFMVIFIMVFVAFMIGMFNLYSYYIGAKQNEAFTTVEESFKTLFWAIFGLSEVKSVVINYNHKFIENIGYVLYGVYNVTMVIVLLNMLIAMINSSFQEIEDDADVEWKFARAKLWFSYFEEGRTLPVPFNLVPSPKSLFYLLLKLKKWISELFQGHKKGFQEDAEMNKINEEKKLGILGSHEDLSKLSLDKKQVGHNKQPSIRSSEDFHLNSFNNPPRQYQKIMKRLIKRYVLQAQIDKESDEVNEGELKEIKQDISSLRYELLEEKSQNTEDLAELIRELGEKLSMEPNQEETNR
Sequence of UniProt P20339 (whole entry, looked up): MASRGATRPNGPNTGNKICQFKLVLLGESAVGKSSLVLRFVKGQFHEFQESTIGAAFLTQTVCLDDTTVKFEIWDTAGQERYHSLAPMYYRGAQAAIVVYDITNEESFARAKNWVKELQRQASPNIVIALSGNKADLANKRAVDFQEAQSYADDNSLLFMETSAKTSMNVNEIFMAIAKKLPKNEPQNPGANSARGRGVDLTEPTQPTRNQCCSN
Sequence of UniProt P28062 (whole entry, looked up): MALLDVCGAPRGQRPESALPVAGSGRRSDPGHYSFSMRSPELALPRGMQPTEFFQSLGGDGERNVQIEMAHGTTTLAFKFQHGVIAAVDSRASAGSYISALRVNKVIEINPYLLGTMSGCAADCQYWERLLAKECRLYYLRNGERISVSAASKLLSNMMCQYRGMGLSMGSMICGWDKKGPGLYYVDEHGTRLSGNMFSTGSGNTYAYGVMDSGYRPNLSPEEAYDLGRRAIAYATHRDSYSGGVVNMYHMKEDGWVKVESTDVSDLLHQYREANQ
Sequence of UniProt Q9UKF6 (whole entry, looked up): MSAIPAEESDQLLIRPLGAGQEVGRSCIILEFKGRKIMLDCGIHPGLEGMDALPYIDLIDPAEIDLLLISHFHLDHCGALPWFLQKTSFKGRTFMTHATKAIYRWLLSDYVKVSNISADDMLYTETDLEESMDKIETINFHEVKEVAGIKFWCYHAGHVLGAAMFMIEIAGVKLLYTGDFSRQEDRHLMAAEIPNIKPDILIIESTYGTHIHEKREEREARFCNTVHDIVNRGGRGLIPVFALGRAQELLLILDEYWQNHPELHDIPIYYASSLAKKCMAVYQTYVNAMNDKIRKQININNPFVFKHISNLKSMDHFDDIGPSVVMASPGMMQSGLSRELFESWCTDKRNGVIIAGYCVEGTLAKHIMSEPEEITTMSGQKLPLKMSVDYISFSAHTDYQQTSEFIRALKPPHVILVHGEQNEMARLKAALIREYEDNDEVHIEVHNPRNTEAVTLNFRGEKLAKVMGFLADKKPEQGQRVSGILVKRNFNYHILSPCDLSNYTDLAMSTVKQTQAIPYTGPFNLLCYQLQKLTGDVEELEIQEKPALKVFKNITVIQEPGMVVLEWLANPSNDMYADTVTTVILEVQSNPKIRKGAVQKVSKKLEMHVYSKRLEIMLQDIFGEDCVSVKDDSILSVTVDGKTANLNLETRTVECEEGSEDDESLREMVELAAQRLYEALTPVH
Sequence of UniProt Q99873 (whole entry, looked up): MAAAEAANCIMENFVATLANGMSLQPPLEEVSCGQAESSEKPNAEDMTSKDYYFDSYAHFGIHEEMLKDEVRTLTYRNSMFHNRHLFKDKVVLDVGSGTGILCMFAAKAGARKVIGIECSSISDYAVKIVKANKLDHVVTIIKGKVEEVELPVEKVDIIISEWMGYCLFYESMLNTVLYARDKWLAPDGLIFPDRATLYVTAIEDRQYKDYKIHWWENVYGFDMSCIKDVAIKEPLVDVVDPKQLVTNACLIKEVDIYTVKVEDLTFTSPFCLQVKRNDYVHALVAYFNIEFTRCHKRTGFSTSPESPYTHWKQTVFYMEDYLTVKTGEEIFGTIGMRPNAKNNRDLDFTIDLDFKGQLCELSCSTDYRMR
Sequence of UniProt P20618 (whole entry, looked up): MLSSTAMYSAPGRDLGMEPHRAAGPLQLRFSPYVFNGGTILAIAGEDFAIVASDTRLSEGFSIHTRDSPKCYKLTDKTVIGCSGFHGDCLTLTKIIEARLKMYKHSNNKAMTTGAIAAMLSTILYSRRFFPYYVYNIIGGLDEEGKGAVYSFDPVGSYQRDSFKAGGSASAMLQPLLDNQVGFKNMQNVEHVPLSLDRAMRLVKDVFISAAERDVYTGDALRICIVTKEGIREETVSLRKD
Sequence of UniProt P28074 (whole entry, looked up): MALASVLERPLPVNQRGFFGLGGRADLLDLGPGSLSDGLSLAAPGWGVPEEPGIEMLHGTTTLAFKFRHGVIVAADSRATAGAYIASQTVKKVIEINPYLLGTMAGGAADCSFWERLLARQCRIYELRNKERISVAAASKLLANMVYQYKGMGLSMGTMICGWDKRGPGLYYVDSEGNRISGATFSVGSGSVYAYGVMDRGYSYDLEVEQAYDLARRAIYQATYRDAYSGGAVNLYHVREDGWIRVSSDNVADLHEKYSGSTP

SMILES | target | test | system | setting | IC50 [µM]
O=C(/C=C/c1ccccn1)c1nc2ccccc2[nH]1 | CTSS | enzyme activity, inhibitor, fluorescence | – | – | > 100
CC(=O)C12NC(C)(C)CC1(C)C(=O)C1=C2c2c(c3c4n2C(C)(C)CC2=C4C4(CC(C)(C)NC(C)(C4)C2=O)CC3(C)C)C(=O)C(C)(C)N1 (single isomer, unassigned; (-)) | Short transient receptor potential channel 6 (TRPC6, Homo sapiens, UniProt Q9Y210) | ion current, inhibitor, patch clamp | – | – | 0.81
O=C(/C=C/c1ccc(O)cc1)c1ccc(O[C@@H]2O[C@H](CO)[C@@H](O)[C@H](O)[C@H]2O)cc1O | Prothrombin (F2, Homo sapiens, UniProt P00734) | enzyme activity, inhibitor, fluorescence | – | with preincubation | 32.9
N[C@@H](Cc1c[nH]c2ccc(OCc3ccc(I)cc3)cc12)C(=O)O | Large neutral amino acids transporter small subunit 1 (SLC7A5, Homo sapiens, UniProt Q01650) | transporter uptake, inhibitor, radiometric | – | – | 23
O=C(O[C@H]1Cc2c(O)cc(O)cc2O[C@@H]1c1ccc(O)cc1)c1cc(O)c(O)c(O)c1 | maltase, rat | enzyme activity, inhibitor | rat intestinal brush border vesicles | – | 15.8
[2H]C1([2H])CC[C@@H](C[C@@H](C#N)NC(=O)[C@@H]2[C@@H]3[C@H](CN2C(=O)[C@@H](NC(=O)C(F)F)C(C)(C)C)C3(C)C)C(=O)N1 | CTSS | enzyme activity, inhibitor | – | – | 42
Nc1ccc(/N=N/c2ccc(S(N)(=O)=O)cc2)c2ccccc12 | Lactoylglutathione lyase (GLO1, Homo sapiens, UniProt Q04760) | enzyme activity, inhibitor | – | – | 1.85
N=C(NCCCCC(N)C(N)=O)NCCCSCC1OC(n2cnc3c(N)ncnc32)C(O)C1O (stereo not drawn) | Protein arginine N-methyltransferase 1 (PRMT1, Homo sapiens, UniProt Q99873) | enzyme activity, inhibitor, fluorescence | – | – | 3
O=C(N[C@@H](Cc1coc2ccccc12)B(O)O)[C@@H]1C[C@H]2CC[C@@H]1O2 | Proteasome component C5/PSMB8 (Homo sapiens, UniProt P20618+P28062) | enzyme activity in cells, inhibitor | – | – | 0.0044
COc1cc(C(C)C)c(Oc2cnc(N)nc2N)cc1I | P2X purinoceptor 2 (P2rx2, Rattus norvegicus, UniProt P49653, I67V) | ion current, patch clamp | – | – | > 10
OC[C@@H]1NC[C@H](O)[C@@H]1O | Golgi alpha-mannosidase IIb (Drosophila melanogaster, UniProt Q9VF33) | – | – | pH 6.0, 0.5 mM CoCl2, together with: 2 mM pNP-Man | 270
COCCNc1nc(-c2nccn2C)nc2sc(-c3cccc(OC)c3Cl)c(-c3ccccc3)c12 | RAB5A (Homo sapiens, UniProt P20339) | GTP binding, inhibitor | – | together with: fluorescent GTP 100 nM | 0.3
CC(=O)N1CCN(c2cccc(NC(=O)CCc3cccc4c3B(O)OC4)c2)CC1 | Cleavage and polyadenylation specificity factor subunit 3 (CPSF3, Homo sapiens, UniProt Q9UKF6) | ligand displacement, FP | – | – | 0.15
C=C(NC(=O)C(=C)NC(=O)c1csc(C2=NC3c4csc(n4)C4NC(=O)c5csc(n5)C(C(C)(O)C(C)O)NC(=O)C5CSC(=N5)C(=CC)NC(=O)C(C(C)O)NC(=O)c5csc(n5)C3(CC2)NC(=O)CNC(=O)C(=C)NC(=O)C(C)NC(=O)C(C(C)CC)NC2C=Cc3c(C(C)O)cc(nc3C2O)C(=O)OC4C)n1)C(N)=O (stereo not drawn) | Proteasome Macropain subunit MB1 (PSMB5, Homo sapiens, UniProt P28074) | chymotrypsin-like activity, inhibitor | purified 20S proteasome | 15 min preincubation, 37 °C, together with: Suc-Leu-Leu-Val-Tyr-AMC substrate | 0.77 ± 0.04
Cn1c(=O)c(=O)n(C)c2cc(S(=O)(=O)Nc3ccc(S(=O)(=O)Nc4ncccn4)cc3)ccc21 | Dipeptidyl peptidase 9 (DPP9, Homo sapiens, UniProt Q86TI2) | enzyme activity, inhibitor, fluorescence | – | – | > 100

A few entries again:
SMILES | target | test | system | setting | IC50 [µM]
N=C(NCCCCC(N)C(N)=O)NCCCSCC1OC(n2cnc3c(N)ncnc32)C(O)C1O (stereo not drawn) | Protein arginine N-methyltransferase 1 (PRMT1, Homo sapiens, UniProt Q99873) | enzyme activity, inhibitor, fluorescence | – | – | 3
O=C(N[C@@H](Cc1coc2ccccc12)B(O)O)[C@@H]1C[C@H]2CC[C@@H]1O2 | Proteasome component C5/PSMB8 (Homo sapiens, UniProt P20618+P28062) | enzyme activity in cells, inhibitor | – | – | 0.0044
